Assay results pooled from the literature.
Protocols differ between the studies behind these lines. Values joined by “and” are separate records of one study, mostly repeats; a detail may differ. Numbers after ± are the reported error.

| SMILES | assay | system | conditions | how to read | quantity | value |
| --- | --- | --- | --- | --- | --- | --- |
| O=C(Nc1cnccc1-c1ccc([18F])nc1)c1ccnc(NC(=O)C2CC2)c1 |  | FVB/NJ mice (both sexes), liver | intravenous, dose not given, 120 min, added: tariquidar 15 mg/kg i.v. pre-dose |  | SUV | 7.19 |
| CC(C)(O)c1ncc([S@](N)(=O)=NC(=O)Nc2c3c(cc4c2CCC4)CCC3)s1 | measured: general, administration-site conditions | healthy human | oral, 100 mg, CT formulation, fed |  | subjects with TEAEs | 50% |
| CCCC[C@H](OC(C)=O)c1ccccc1C(=O)O |  | beagle dog, both sexes, whole blood | intravenous, 1.5 mg/kg, day 7 |  | AUC(0-t) | 1220 ± 371 ng·h/mL |
| C=C[C@]1(C)C[C@@H](OC(=O)CSc2ccc(NC(=O)c3ccco3)cc2)[C@]2(C)[C@H](C)CC[C@]3(CCC(=O)[C@H]32)[C@@H](C)[C@@H]1O |  | M. gallisepticum-infected chickens, plasma | intramuscular, 80 mg/kg single dose |  | central volume (V1/F) | 6.78 L/kg |
| CN1CCC[C@]1(C)/C=C/S(=O)(=O)NC(=O)Nc1c2c(cc3c1CCC3O)CCC2 (stereo partly drawn) |  | human, plasma | oral, 12.5 mg twice daily of parent drug, day 14, metabolite of dosed drug |  | AUC(0-tau) | 113000 ng·h/mL |
| CCCCN1C(=O)c2cccc3c(NCCCCN4CCOCC4)ccc(c23)C1=O |  | water | pH 6.0 |  | absorption maximum | 449 nm |
| CC(C)C[C@H](NC(=O)[C@H](CCCNC(=N)N)NC(=O)[C@H](Cc1ccccc1)NC(=O)[C@H](Cc1ccccc1)NC(=O)[C@@H](NC(=O)[C@H](COP(=O)(O)O)NC(=O)[C@@H](N)COP(=O)(O)O)[C@@H](C)O)C(=O)N[C@@H](Cc1ccccc1)C(=O)N[C@@H](CC(N)=O)C(=O)N[C@@H](CCCNC(=N)N)C(=O)N[C@@H](C)C(=O)N[C@@H](CCCCN)C(=O)N[C@@H](CCCNC(=N)N)C(=O)N[C@@H](Cc1c[nH]cn1)C(=O)N[C@@H](Cc1c[nH]cn1)C(=O)NCC(=O)N[C@@H](Cc1ccc(O)cc1)C(=O)N[C@@H](CCCCN)C(=O)N[C@@H](CCCNC(=N)N)C(=O)N[C@@H](CCCCN)C(=O)N[C@@H](Cc1ccccc1)C(=O)N[C@@H](Cc1c[nH]cn1)C(=O)O | HPLC-UV | human saliva | 6 h, 37 °C, added: initial 1 mg/mL |  | peptide concentration | 0.562 mg/mL |
| C#CC(C)NC(=O)C(CC(C)(C)F)NC(c1ccc(-c2ccc(S(C)(=O)=O)cc2)cc1)C(F)(F)F (stereo not drawn) |  | PBS | 100 µM, 23 h, pH 7.45, 37 °C, added: GSH 5 mM |  | GSH adduct formation | 2% |
| C=C(NC(=O)c1csc(-c2nc3c(cc2O)-c2nc(cs2)C(=O)NC(C(C)O)C(=O)NC(=C(C)OC)c2nc(cs2)C(=O)NC2c4nc(cs4)C(=O)NC(COC(=O)c4c5c6c(cccc6n4O)COC(=O)C(OC4CC(C)(O)C(N(C)C)C(C)O4)C2OC5)c2nc-3cs2)n1)C(N)=O (stereo not drawn) |  | cynomolgus monkey, both sexes, plasma | intravenous infusion, 3 mg/kg multiple doses, day 7 |  | MRT(0-last) | 1.46 h |
| Cc1nc(N)nc2c1C(=O)N[C@@H](c1ccc(F)cc1-c1cccc(O[11CH3])n1)C2 | ex vivo biodistribution | mice, U87 subcutaneous xenograft, bone | 60 min post-injection, baseline, vehicle pre-treatment |  | tracer uptake | 9.3 ± 4.7 %ID |
| Cc1ccc(CN2C(=O)/C(=N\c3ccc(Cl)cc3Br)c3ccccc32)cc1 |  | mouse, blood | 150 mg/kg |  | MPV | 5.3 ± 0.12 fL |
| C[C@H](CCC(=O)NCC(=O)O)[C@H]1CC[C@H]2[C@@H]3[C@H](O)C[C@@H]4C[C@H](OS(=O)(=O)O)CC[C@]4(C)[C@H]3CC[C@]12C |  | human, plasma | control |  | mean daily plasma concentration | 0.088 ± 0.0153 µM |
| CC1(C)C(=CC=C2CCCC(C=CC3=[N+](CCC[N+](C)(C)C)c4ccc(S(=O)(=O)O)cc4C3(C)C)=C2SCCOCCOCCC(=O)O)N(CCC[N+](C)(C)C)c2ccc(S(=O)(=O)O)cc21 |  | PBS | pH 7.4 |  | absorption maximum wavelength | 779 nm |
| Cc1c(Cc2ccc(Cl)c(OC(C)C(=O)O)c2)c2ccc(C(=O)NC(C)c3ccc(C(C)(C)C)cc3)cc2n1CC1CCC1 (stereo not drawn) | metabolic stability | mouse, liver microsomes |  |  | half-life | > 1 h |
| CCCCN1C(=O)c2cccc3c(NCCCN4CCOCC4)ccc(c23)C1=O |  | chloroform |  |  | absorption maximum | 435 nm |
| [2H]C1([2H])CC[C@@H](C[C@@H](C#N)NC(=O)[C@@H]2[C@@H]3[C@H](CN2C(=O)[C@@H](NC(=O)C(F)(F)F)C(C)(C)C)C3(C)C)C(=O)N1 |  | mouse liver microsomes | scaled to liver |  | intrinsic clearance | 539 mL/min/kg |
| CCCCN1C(=O)c2cccc3c(NCCCCCCCCN4CCOCC4)ccc(c23)C1=O |  | ethylene glycol |  |  | fluorescence lifetime | 8.1 ns |
| CC(C(=O)O)n1nc(Cn2cc3cc(OCC[18F])c(Cl)cc3n2)c2ccccc2c1=O (racemic) |  | rat, blood | 30 min |  | tracer uptake | 1.04 %ID/g |
| C/C(N)=N/C(=N\S(=O)(=O)c1ccc(C(F)(F)F)cc1)N1C[C@H](c2ccccc2)C(c2ccc(Cl)cc2)=N1 |  | male C57BL/6 mouse, liver | intravenous, 10 mg/kg |  | Tmax | 0.25 h |
| COc1cccc(OC)c1-c1cc(C(=O)NC2(C(=O)O)C3CC4CC(C3)CC2C4)nn1-c1ccc(C(=O)NCCNC(=O)[C@H](CCCCNC(=O)[C@H](CC(C)C)NC(=O)C2OC2C(=O)O)NC(=O)CN2CCN(CC(=O)[O-])CCN(CC(=O)[O-])CCN(CC(=O)[O-])CC2)cc1C(C)C.[177Lu+3] (mixture of isomers) |  | mouse, HT-29 xenograft | 24 h post injection, biodistribution | baseline: tumour over liver uptake | tumour-to-liver ratio | 5.74 |
| [123I]c1ccc2nc(-c3ccc(-n4ccnn4)nc3)cn2c1 |  | male Wistar rat, bone | intravenous, 4 MBq, 3 h |  | tracer uptake | 0.042 %ID/g |
| COc1cccc(OC)c1-c1cc(C(=O)NC2(C(=O)O)C3CC4CC(C3)CC2C4)nn1-c1ccc(C(=O)N(C)CCOCCN(C)C(=O)[C@H](CCCCNC(=O)[C@H](CC(C)C)NC(=O)C2OC2C(=O)O)NC(=O)CN2CCN(CC(=O)[O-])CCN(CC(=O)[O-])CCN(CC(=O)[O-])CC2)cc1C(C)C.[177Lu+3] (mixture of isomers) |  | mouse, HT-29 xenograft, HT-29 tumour | 4 h post injection |  | tissue uptake | 6.5 %ID/g |
| O=C(NS(=O)(=O)c1cccs1)c1cc2ccccc2n1Cc1ccc(Br)c2ccccc12 |  | KM mouse, chronic hyperuricaemia model | dose not given, day 19 |  | body weight | 31.5 g and 37.7 g and 35.3 g and 37.4 g and 35.7 g and 32.8 g |
| O=C(Nc1cnccc1-c1ccc([18F])cc1)c1ccnc(NC(=O)C2CC2)c1 | ex vivo gamma counting | GSK-3β transgenic mice, early-stage, cerebellum | intravenous, 120 min, mean, P-gp inhibitor pretreatment, added: tariquidar 15 mg/kg iv |  | SUV | 0.24 |
| CCCCN1C(=O)c2cccc3c(NCCCCCN4CCOCC4)ccc(c23)C1=O |  | dioxane |  |  | absorption maximum | 426 nm |
| Cc1nc(N)nc2c1C(=O)N[C@@H](c1ccc(F)cc1-c1cccc(OCC[18F])n1)C2 | ex vivo biodistribution | C57BL/6 mice, stomach | intravenous, 30 min |  | uptake | 0.93 ± 0.17 %ID |
| CN1C(=O)[C@@H](Cc2ccc(O)c(I)c2)NC(=O)CNC(=O)[C@H](Cc2ccc3ccccc3c2)NC(=O)[C@H](CCCNC(=N)N)NC(=O)[C@H]1CCCNC(=O)c1ccc(CNC(=O)CN2CCN(CC(=O)O)CCN(CC(=O)O)CCN(CC(=O)O)CC2)cc1 [lutetium-177 labelled] | 1 | human, extrapolated from mouse, osteogenic cells |  |  | total absorbed dose | 0.049 mGy/MBq |

Some of these lines once more:
| SMILES | assay | system | conditions | how to read | quantity | value |
| --- | --- | --- | --- | --- | --- | --- |
| COc1cccc(OC)c1-c1cc(C(=O)NC2(C(=O)O)C3CC4CC(C3)CC2C4)nn1-c1ccc(C(=O)NCCNC(=O)[C@H](CCCCNC(=O)[C@H](CC(C)C)NC(=O)C2OC2C(=O)O)NC(=O)CN2CCN(CC(=O)[O-])CCN(CC(=O)[O-])CCN(CC(=O)[O-])CC2)cc1C(C)C.[177Lu+3] (mixture of isomers) |  | mouse, HT-29 xenograft | 24 h post injection, biodistribution | baseline: tumour over liver uptake | tumour-to-liver ratio | 5.74 |
| [123I]c1ccc2nc(-c3ccc(-n4ccnn4)nc3)cn2c1 |  | male Wistar rat, bone | intravenous, 4 MBq, 3 h |  | tracer uptake | 0.042 %ID/g |
